# Measurements from different studies.
# Compare with care: the assays were run in different laboratories. “And” joins repeats or separate records; there may be more than shown.
# Target: Mitogen-activated protein kinase 14 (MAPK14, Homo sapiens, UniProt Q16539)
# Chain of UniProt Q16539 (whole entry, looked up): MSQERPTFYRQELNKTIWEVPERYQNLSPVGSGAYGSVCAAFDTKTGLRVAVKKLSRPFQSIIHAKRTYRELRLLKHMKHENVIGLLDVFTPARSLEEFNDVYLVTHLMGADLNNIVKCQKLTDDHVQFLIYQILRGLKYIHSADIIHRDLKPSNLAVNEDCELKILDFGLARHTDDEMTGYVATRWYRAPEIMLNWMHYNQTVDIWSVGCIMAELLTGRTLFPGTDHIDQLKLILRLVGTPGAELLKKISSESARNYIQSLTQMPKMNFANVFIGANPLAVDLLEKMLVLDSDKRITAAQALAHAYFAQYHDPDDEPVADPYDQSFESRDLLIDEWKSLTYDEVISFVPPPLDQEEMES
SMILES,assay,test system,setting,scale,measurement,value
Cc1ccc(Nc2nc3nonc3nc2Nc2cccc(C(F)(F)F)c2)cc1Cl,"enzyme activity, inhibitor, TR-FRET",,up to 30 µM,,inhibition,no inhibition
Oc1ccc(-c2nc(-c3ccncc3)c(-c3ccc(F)cc3)[nH]2)cc1,"kinase activity, Kinase-Glo luminescence",,concentration not given,,normalized luminescence,1.03 and 0.977 and 1.16
O=C1NC(=O)/C(=C/c2ccc(-c3ccc(F)cc3O)o2)S1,enzyme activity,,10 µM,,remaining activity,86%
C=CC(=O)N1CCC(C(=O)NCC(=O)N2CCN(c3nc(-c4cnc(N)nc4C(F)F)nc(N4CCOCC4)n3)CC2)CC1,KINOMEscan,,1 µM,,remaining binding,100%
COc1ccc2c(c1)CCc1c-2n[nH]c1C(=O)N1CCc2nc3cc(-c4ccccc4)[nH]n3c(=O)c2C1,"kinase activity, LanthaScreen TR-FRET",,SB202190 287.5 µM as -100%,relative to: DMSO control,efficacy,-24.8%
O=C(NC1CCC1)c1ccc2nc(-c3cccc(NS(=O)(=O)NCCN4CCCCC4)c3)cn2c1,enzyme activity,,10 µM,,remaining activity,100%
Cc1cc(C)nc(NC(=S)N2CCN(Cc3ccc(C(F)(F)F)cc3)CC2)c1,"inhibitor, ADP-Glo",,concentration not given,,kinase activity,no effect
Cc1ccc2c(=O)cc(C(=O)Nc3c(C(=O)c4ccc(F)cc4)oc4ccccc34)oc2c1C,"enzyme activity, inhibitor, TR-FRET",,up to 30 µM,,inhibition,no inhibition
C=CC(=O)N1CCC(COCC(=O)N2CCN(c3nc(-c4cnc(N)nc4C(F)F)nc(N4CCOC[C@@H]4C)n3)CC2)CC1,KINOMEscan,,1 µM,relative to: DMSO control,remaining binding,100%
CCN1CCN(Cc2ccc(NC(=O)c3ccc(C)c(Oc4ncnc5[nH]ncc45)c3)cc2C(F)(F)F)CC1,"kinase probe binding, inhibitor, KiNativ",Huh-7 cell lysate,1.0 µM,,inhibition,98.6%
CNc1cccc2cc(C(=O)Nc3ccc(C(=O)O)cc3)c(=O)[nH]c12,"kinase activity, inhibitor",,10 µM,,inhibition,-2.4%
CSc1nc(C)c(-c2ccnc(Nc3ccc(N4CCOCC4)cc3)c2)[nH]1,kinase activity,,10 µM,,inhibition,11.4%
c1ccc(Cn2cc(-c3ccnc4ccccc34)c(-c3ccccn3)n2)cc1,enzyme activity,,concentration not given,relative to: LY selectivity Yck2 over MAPK14,selectivity reduction,3 fold
CCCOc1ccc(OC)c(F)c1C(=O)c1ccc(C(=O)N[C@@H]2CNC[C@H]2NC(=O)c2ccc3[nH]ncc3c2)cc1,enzyme activity,,10 µM,,remaining activity,110%
[2H]c1cc(C)c(NC(=O)c2cnc(Nc3cc(N4CCCCC4)nc(C)n3)s2)c(Cl)c1,,,0.01 µM,,inhibition,< 30%

# Some of these lines once more:
SMILES,assay,test system,setting,scale,measurement,value
Oc1ccc(-c2nc(-c3ccncc3)c(-c3ccc(F)cc3)[nH]2)cc1,"kinase activity, Kinase-Glo luminescence",,concentration not given,,normalized luminescence,1.03 and 0.977 and 1.16
Cc1ccc(Nc2nc3nonc3nc2Nc2cccc(C(F)(F)F)c2)cc1Cl,"enzyme activity, inhibitor, TR-FRET",,up to 30 µM,,inhibition,no inhibition
